Assay results pooled from the literature.
Compare with care: the assays were run in different laboratories.

CN(C)C(=O)c1cncc(-c2cnc3[nH]cc(-c4cc(OS(=O)(=O)F)ccc4C(F)(F)F)c3c2)c1  GI50 (Ba/F3 BCR-ABL wild type; cell proliferation; 72 h): > 1000 nM
CC(C)(C)C(=O)OCOP(=O)(OCOC(=O)C(C)(C)C)C1CCCN(O)C1=O (centres unmarked)  GI50 (HCT-15): 675 nM
CC1CCC2C(C)C(OC(=O)CCC(=O)N3CCC(Nc4ccc(S(=O)(=O)NC(=O)c5ccc(N6CCN(CC7=C(c8ccc(Cl)cc8)CC(C)(C)CC7)CC6)cc5Oc5cnc6[nH]ccc6c5)cc4[N+](=O)[O-])CC3)OC3OC4(C)CCC1C32OO4 (centres unmarked)  GI50 (U-937; cell growth or viability): 230 nM
Cc1c(Cl)c(=O)oc2cc(OCCCCCC[Se]C#N)ccc12  GI50 (SW1573; cell growth or viability, SRB): 18000 nM
O=C(C[Se]C(=O)c1ccco1)Nc1cccc(C(F)(F)F)c1  GI50 (NCI60 breast subpanel; NCI60 five-dose screen): 2670 nM
Cc1cc(=O)oc2cc(OCCCCCC[Se]C#N)ccc12  GI50 (SW1573; cell growth or viability, SRB): 5300 nM
CN(C)C(=O)c1cncc(-c2cnc3[nH]cc(-c4cc(OS(=O)(=O)F)ccc4C#N)c3c2)c1  GI50 (Ba/F3 BCR-ABL wild type; cell proliferation; 72 h): > 1000 nM
O=C(C[Se]C(=O)c1ccccc1)Nc1cccc(C(F)(F)F)c1  GI50 (NCI60 colon subpanel; NCI60 five-dose screen): 6760 nM

Repeated from above:
O=C(C[Se]C(=O)c1ccco1)Nc1cccc(C(F)(F)F)c1  GI50 (NCI60 breast subpanel; NCI60 five-dose screen): 2670 nM
